# Measured values pooled from the literature.
# A part holds a random share of what one study measured. Changes are numbered by the printed parent chain.

# Series 1
# Target: FOSB, bZIP domain (human)
# Technique: DHFR protein complementation
# Sample: yeast
# Setting: single substitutions, most at no-binding floor
# Baseline: wild-type JUN-FOS pair
# Direction: higher = stronger binding
# Parent: JUN, bZIP domain (human); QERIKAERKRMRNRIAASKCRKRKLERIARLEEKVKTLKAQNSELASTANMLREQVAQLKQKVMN
Substitution,binding fitness
L45C,-1.46 natural log
L52P,-1.28 natural log
L52T,-1.48 natural log
L38N,-1.33 natural log
L45V,-1.21 natural log
L45W,-1.22 natural log
L45N,-1.34 natural log
Q55P,-1.41 natural log
V56A,-1.22 natural log
A49N,-1.32 natural log

# Series 2
# Target: RING finger protein unkempt homolog, zinc fingers 1-6, GST-SBP tag (UNK, Homo sapiens, UniProt Q9C0B0, residues 30-357)
# Sequence of UniProt Q9C0B0 (30-357, looked up): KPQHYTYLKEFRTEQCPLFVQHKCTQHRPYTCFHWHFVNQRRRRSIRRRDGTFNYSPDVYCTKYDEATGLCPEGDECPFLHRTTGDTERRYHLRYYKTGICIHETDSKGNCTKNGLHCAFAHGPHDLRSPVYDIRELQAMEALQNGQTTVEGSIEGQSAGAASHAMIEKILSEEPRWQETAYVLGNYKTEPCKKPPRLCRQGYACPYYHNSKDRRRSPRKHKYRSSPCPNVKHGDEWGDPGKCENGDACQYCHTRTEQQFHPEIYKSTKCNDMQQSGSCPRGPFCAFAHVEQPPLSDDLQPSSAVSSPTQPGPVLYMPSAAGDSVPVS
# Technique: RNA Bind-n-Seq
# Form: RNA
# Sample: in vitro
# Tested at: not given
# Setting: RNA with constant flanks, human-mouse chimeric sites, ends assumed
# Baseline: input RNA pool
# Direction: higher = stronger binding
Oligonucleotide,bound/input enrichment [ratio]
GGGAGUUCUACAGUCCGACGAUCCUGGCACUCUAUCAGAUAUAUUAAUUUUUUAAUGUAGAUAAAAUUUCAAAAAUGAAUGGCUACUUUACACGUUUAACUAGGGUUUUACUAUAUAUGUGUACAUAUGUAUAUAUAUAUAUACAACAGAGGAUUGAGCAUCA,11.7
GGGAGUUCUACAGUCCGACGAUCAAAGUGAUGACUAUGUUUGUCCAACGACAGGUGUUUGCGGAGAGCAAAGAUGAGAUUGCUUUAGUCCUCUAUGGCACAGAUGGCACUGAUAAUGCCCUUGCUGGCAAGGACCAGUAUCAGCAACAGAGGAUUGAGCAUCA,0.278
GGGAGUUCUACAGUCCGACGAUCGGACAUCUGUCAAAUUGUAUUUCCCGUAAAAACGUAGUGAACACUCUGAUACACUUCAUCUGCUUGUACAUCUGUAUGAUAGAGAAAUGUAAAUAUGUUAAUCCAAGCAAUGUGUCACUUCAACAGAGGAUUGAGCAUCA,0.459
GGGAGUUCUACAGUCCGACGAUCAACUUCGUGCAUCGGUUUCCCUUUGUAGCUGUUUCAAUUGGCUUCCUUGUAAAUAAAGAGAUGGAGUUUGGAAUUGUGUACAGCUGUGUGGAAGGCAAGAUGUACACCGGCAGGAAAGGGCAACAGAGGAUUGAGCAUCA,0.325
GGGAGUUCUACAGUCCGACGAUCCACAGAGCAGCACCUACCUCCUCCUUCUUUCCACACCUGCAAACUCUUUUACUUGGGCUGAAUAUUUAGUGUAAUUACAUCUCAGCUUUGAGGGCUCCCUGUGGCAAUUCCCGGAUUAAACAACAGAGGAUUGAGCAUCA,1.04
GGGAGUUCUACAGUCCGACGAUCGGUGGGGUGGUCAUUGCGCCAAUUGAGGCUGAUUUUCAUGAGUCGCCUUCAAAACUCUCGCAUAGGGUUGACAAUGUGGGGGGGUGGGGGAUCCAGCUUAUUCUUUUAUUUUCAAGUCCACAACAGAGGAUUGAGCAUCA,0.933
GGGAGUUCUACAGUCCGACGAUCAAAGCCCAAGUAUUUUGAAAAAACUCGAACAGAUUUGUCAAGGGUAACCAGCUUGGAGUCUAGCAACUUGCCAAUGUGUUUACCAAUUUUGGGGGCUGUUUUUCUUUUCUUCUUUCAAAUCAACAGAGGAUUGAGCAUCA,0.46
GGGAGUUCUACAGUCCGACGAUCUCUUUGUGUAACUUAUCUGUAAAAGGUUCCCCCCCCCUACUGUCAAAAAAUAUGCAUGUAUAGUAAUUAGGACUUCAUUCCUCCAUGUUUUCUUCCCUUAUCUUACUGUCAUUGUCCUUACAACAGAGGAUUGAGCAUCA,2.1

# Series 3
# Target: RNA binding protein fox-1 homolog 2, RRM domain, GST-SBP tag (RBFOX2, Homo sapiens, UniProt O43251-10, residues 100-194)
# Technique: RNA Bind-n-Seq
# Form: RNA
# Sample: in vitro
# Tested at: 365 nM
# Setting: natural RNA segment, single round, ends assumed
# Baseline: no-protein control
# Direction: higher = stronger binding
# Target sequence (chain): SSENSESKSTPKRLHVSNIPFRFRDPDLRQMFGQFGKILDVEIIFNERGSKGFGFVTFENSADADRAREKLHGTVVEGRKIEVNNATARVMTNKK
Oligonucleotide,RBNS enrichment (R)
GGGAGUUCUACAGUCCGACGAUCCAUUCCUCCACUUUCAUAAAUUUGACAAAUAAUAAGCCUCUCCCAUUAGGAUUUUCUGUUUUAUAGUAAAUAGUUGGUAUUUGGUAGUCCACAAUUAAAGUCAUUGCAUUUGGAAUUCUCGGGUGCCAA,0.716
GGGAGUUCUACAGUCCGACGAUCGUACUUAUUUAUGUAGUCACUGUGUUUCUGGAAUUUUAUGUUAAUAAAAUUUUAAUUUAAAAAGGCUUGUCUGAGAACAUAUGAUUGACACUCUGGUCAAGACGGUCGUUUGGAAUUCUCGGGUGCCAA,0.795
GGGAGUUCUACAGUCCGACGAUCGACAACUCCUAGAACAUGUGCACCCAUGCAUAUGAUGACAGAUGUCUGCUUUUAAUGCAGCUGUGGACUGAGGUGUGGCUCAGAGGACACUUGUUCACUAAGUGUAAGACUGGAAUUCUCGGGUGCCAA,0.562
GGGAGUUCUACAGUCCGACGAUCCUUGUAAAUAUAUCCUAUCCGAAGUGUCAGCAGUUACGUUAGUUAAUACCGUGUUAUCUGCUGUAUUUUCCCUGUGUGUAUAAUGUAUCUCCUUUCAGAACAGGAAUGUGUGGAAUUCUCGGGUGCCAA,0.221
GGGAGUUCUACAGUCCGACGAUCAGACAGUCCUUUCCCACCAUUCCUGCCUUUAAGCCAAAGAAACAAGCUGUGCAGGCAUGGUCCCUUAAGGCACAGUGGGAGCUGAGCUGGAAGGGGCCACGUGGAUGGGCUGGAAUUCUCGGGUGCCAA,0.257
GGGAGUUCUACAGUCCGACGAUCCAUCCCAGGCUUGCUGUGUCUCACUGUCCCCACCCUCCUUCCCUACUUCUUUUUUUGUGUGUCUGGUUUCUCCCUUCCUUUCCUCCCUUUGGGUUUCCAGAGUCGGUGGGUGGAAUUCUCGGGUGCCAA,0.766
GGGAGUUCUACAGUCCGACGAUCUGUGGUGGUGGAGUGGGGAGCUGGCUUCUGCUGGCCAGGAUAGCUUAACCCUGACUUUGGGAUCUGCCUGCAUCGGCGUUGGCCACUGUCCCCAUUUACAUUUUCCCCACUGGAAUUCUCGGGUGCCAA,0.395
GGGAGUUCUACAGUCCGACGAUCGAACUCAGGACCUCUGGGAAAGCAGUCAGUGCUCUUAACCACUGAGCCAUCUCUCCAGCCCCCUAGACCCCCUUUCUUAUCACUCACACAGACACACUGUGUCUUGUGUCUGGAAUUCUCGGGUGCCAA,0.203

# Series 4
# Target: CCND2, cyclin fold, Cln2 fusion (human)
# Technique: yeast growth competition, sequencing
# Sample: yeast
# Setting: weak parent motif
# Baseline: not given
# Direction: higher = stronger binding
# Parent: ORC1 docking peptide (human); PRARKRLELGNLG; partner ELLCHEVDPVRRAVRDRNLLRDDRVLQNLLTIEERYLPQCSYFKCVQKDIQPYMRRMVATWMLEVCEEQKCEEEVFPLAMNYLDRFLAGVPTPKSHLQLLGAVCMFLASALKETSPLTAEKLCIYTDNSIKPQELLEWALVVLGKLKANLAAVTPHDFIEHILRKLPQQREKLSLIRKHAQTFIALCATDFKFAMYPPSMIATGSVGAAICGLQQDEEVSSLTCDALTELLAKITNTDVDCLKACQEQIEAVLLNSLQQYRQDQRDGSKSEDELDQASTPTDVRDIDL
Substitution,normalised enrichment score
PRRRKRLELGNLG [A3R],-0.00777
PRARKRLELGELG [N11E],-0.351
PRARKRRELGNLG [L7R],0.505
PRARKRLCLGNLG [E8C],0.22
PRARKRLLLGNLG [E8L],0.0803
PRARKRLELGVLG [N11V],0.661
PRARKRLNLGNLG [E8N],0.0452
PRAYKRLELGNLG [R4Y],-0.00818
PRIRKRLELGNLG [A3I],-0.0954
PRAHKRLELGNLG [R4H],0.453
PRARKRLELGNLV [G13V],-0.00823
PRARKRLELYNLG [G10Y],1.28
PRARKRLELGFLG [N11F],0.243
PRARKRWELGNLG [L7W],0.248
PRARKRLELGRLG [N11R],0.201
PRARKRLEYGNLG [L9Y],0.44
PRARFRLELGNLG [K5F],0.2
